Experimental data pooled from the literature.
Compare with care: the assays were run in different laboratories. Several values in a cell are separate wells, animals, samples, runs or records.

O=C(O)c1ccc(O)c(O)c1O  plasma concentration (human plasma; mean, both sexes): 134 nM
COc1ccccc1OCC(O)CN1CCN(CC(=O)Nc2c(C)cccc2C)CC1 (stereo not shown)  plasma concentration (human, plasma; oral, 60 mg/kg/day every 6 h, 1 h post-dose): 2160 ng/mL
O=C(O)c1cc(O)ccc1O  plasma concentration (human plasma; mean, both sexes): 5080 nM
CS(=O)(=O)n1cc2c(n1)CN([C@H]1CO[C@H](c3cc(F)ccc3F)[C@@H](N)C1)C2  plasma concentration (healthy Japanese men, plasma; oral, 10 mg, 168 h, fasted, single dose): 8.1 nM
O=C(Nc1cnccc1Cl)N1CCN(Cc2ccc3c(c2)OC(F)(F)O3)CC1  plasma concentration (human, plasma; 2.5 mg, 24 h post dose day 1): not detected
O=C(O)[C@H](c1ccccc1Cl)N1CCc2sccc2C1  plasma concentration (cat, plasma; dose not given, day 10, with: clopidogrel plus omeprazole; relative to: clopidogrel alone): decreased
O=C1CCc2ccc(OCCCCN3CCN(c4cccc(Cl)c4Cl)CC3)cc2N1  plasma concentration (patients, plasma, steady state; oral or long-acting depot injection, dose not given, CYP2D6 UM, median): 173 ng/mL
O=C(O)CCc1ccc(O)c(OS(=O)(=O)O)c1  plasma concentration (human plasma; median): 1380 nM
CC[C@H](C)[C@H](NC(=O)[C@H](CO)NC(=O)[C@@H](NC(=O)[C@@H]1CCCN1C(=O)[C@H](C)NC(=O)[C@@H](N)CC(N)=O)C(C)C)C(=O)N1CCC[C@H]1C(=O)N[C@@H](CCC(N)=O)C(=O)O  plasma concentration (human, plasma; intravenous infusion, 300 mg over 15 min, after extracorporeal circulation): 6.9 ng/mL and 5.03 ng/mL and 4.86 ng/mL and 8.47 ng/mL and 8.35 ng/mL and 7.01 ng/mL
C[C@H](CCC(=O)NCC(=O)O)[C@H]1CC[C@H]2[C@@H]3CC[C@@H]4C[C@H](O)CC[C@]4(C)[C@H]3C[C@H](O)[C@]12C  plasma concentration (women, C/C genotype, plasma; dose not given, geometric mean): 105 ng/mL
O=C(O)c1ccc(O)cc1O  plasma concentration (human plasma; mean, both sexes): 13600 nM
CC(C)C[C@H](NC(=O)[C@@H](Cc1c[nH]c2ccccc12)NC(=O)[C@H](Cc1ccc(O)cc1)NC(=O)[C@H](CO)NC(=O)[C@H](Cc1c[nH]c2ccccc12)NC(=O)[C@H](Cc1c[nH]cn1)NC(=O)[C@@H]1CCC(=O)N1)C(=O)N[C@@H](CCCNC(=N)N)C(=O)N1CCC[C@H]1C(=O)NCC(N)=O  plasma concentration (Chinese children, precocious puberty, plasma; intramuscular, 22.5 mg, 4320 h, pre-dose second injection, mean): 0.599 ng/mL
C[C@H](CCC(=O)NCC(=O)O)[C@H]1CC[C@H]2[C@@H]3[C@H](O)C[C@@H]4C[C@H](O)CC[C@]4(C)[C@H]3CC[C@]12C  plasma concentration (women, C/C genotype, plasma; dose not given, geometric mean): 339 ng/mL

Some of these lines once more:
O=C(O)c1ccc(O)c(O)c1O  plasma concentration (human plasma; mean, both sexes): 134 nM
